# Measured values of several laboratories.
# Protocols differ between the studies behind these lines. ± gives the spread as reported.
Compound,target or system,assay,system,conditions,scale,measurement,result
O=c1[nH]c2nc(-c3ccccc3)sc2c(=O)n1O,Brassica rapa,,,"100 mg/mL, 72 h",,root length inhibition,92%
O=C(O)CNC(=O)Cc1ccccc1,,,"ventricular cardiomyocytes, C57BL/6 mouse","dose not given, 0.692 s",,sarcomere length,1.72 µm
CN[C@H](CC(C)C)C(=O)N[C@H]1C(=O)N[C@@H](CC(N)=O)C(=O)N[C@H]2C(=O)N[C@H]3C(=O)N[C@H](C(=O)N[C@H](C(=O)O)c4cc(O)cc(O)c4-c4cc3ccc4O)[C@H](O)c3ccc(c(Cl)c3)Oc3cc2cc(c3O[C@@H]2O[C@H](CO)[C@@H](O)[C@H](O)[C@H]2O[C@H]2C[C@](C)(N)[C@H](O)[C@H](C)O2)Oc2ccc(cc2Cl)[C@H]1O,Enterococcus faecalis,broth microdilution,compound-intermediate isolates,,,MBC,4 µg/mL
CC(=O)N(C)[C@H]1CCN(C(=O)c2cnc3c(c2)C[C@](C)(c2ccc(F)cc2)N3)C1,vanin activity,,"human, whole blood ex vivo stimulated","60 mg, 1 h post-dose",relative to: baseline,pantothenic acid level,12.3%
Cc1nc2c(=O)n(O)c(=O)[nH]c2s1,Brassica rapa,,,"100 mg/mL, 72 h",,root length inhibition,83%
CC(=O)NC[C@H]1CN(c2ccc(N3CCOCC3)c(F)c2)C(=O)O1,Enterococcus faecalis,,"vancomycin-intermediate, 10 isolates",serum 25%,,MIC50,2 µg/mL
O=c1[nH]c2ncsc2c(=O)n1O,Brassica rapa,,,"1500 g/ha, 21 days, pre-emergence, glasshouse pot",,growth inhibition,65.7%
Cc1cc(F)cc2c(CCC(=O)N[C@@H]3C(=O)NC[C@H]3O)c(-c3ccc(F)cc3)[nH]c12,,,"mice, APOL1 G2, single copy","oral, 30 mg/kg twice daily, day 8, dosing from day 6, with: IFNγ plasmid injection",,UACR,2300 µg/mg
Cc1n[nH]c2ccc(-c3cc(OC[C@@H](N)Cc4ccccc4)cnc3-c3ccoc3)cc12,,"kinase binding, competitor, MIB/MS competition, refers to: HSL1",Candida albicans cell lysate,100 nM,relative to: DMSO,log2 fold change,0.351
Cn1cc(-c2ccc(-c3cncc(Cl)c3N3CCC4(CCNC4=O)CC3)cc2)cn1,COLO 205,"gene expression, microarray, refers to: HIST1H4L mRNA",,"concentration not given, 2 h",relative to: untreated cells,log2 fold change,-1.48
CN[C@H](CC(C)C)C(=O)N[C@H]1C(=O)N[C@@H](CC(N)=O)C(=O)N[C@H]2C(=O)N[C@H]3C(=O)N[C@H](C(=O)N[C@H](C(=O)O)c4cc(O)cc(O)c4-c4cc3ccc4O)[C@H](O)c3ccc(c(Cl)c3)Oc3cc2cc(c3O[C@@H]2O[C@H](CO)[C@@H](O)[C@H](O)[C@H]2O[C@H]2C[C@](C)(N)[C@H](O)[C@H](C)O2)Oc2ccc(cc2Cl)[C@H]1O,Enterococcus faecalis,,ATCC 29212,,,MIC range,1 µg/mL
O=c1[nH]c2sc(-c3ccccc3)nc2c(=O)n1O,Brassica rapa,,,"100 mg/mL, 72 h",,root length inhibition,33%
c1coc(-c2n[nH]cc2-c2ccnc3ccccc23)c1,CAK1 (Candida albicans),"kinase binding, MIB/MS competition",Candida albicans lysate,1 µM,relative to: DMSO,log2 fold change,-0.22
O=S(=O)(NCCNC/C=C/c1ccc(Br)cc1)c1cccc2cnccc12,PKA,inhibitor,mouse zygotes,"20 µM, injection, hCG, 72 h post, early embryonic development",,embryos at morula stage,0%
Cc1nc2[nH]c(=O)n(O)c(=O)c2s1,Brassica rapa,,,"750 g/ha, 21 days, post-emergence, glasshouse pot",,growth inhibition,0%
Oc1ccccc1-c1n[nH]cc1-c1ccnc2ccccc12,orf19.4575 Candida albicans,"kinase binding, MIB/MS competition",Candida albicans lysate,1 µM,relative to: DMSO,log2 fold change,0.1
CC(C)NCC(O)c1ccc(O)c(O)c1 (stereo not drawn),,,"ventricular cardiomyocytes, C57BL/6 mouse","dose not given, 0.544 s",,sarcomere length,1.5 µm
CC(C)c1nc2[nH]c(=O)n(O)c(=O)c2s1,Brassica rapa,,,"10 mg/mL, 72 h",,root length inhibition,54%
OC(CCN1CCCCC1)(c1ccccc1)C1CC2C=CC1C2 (stereo not drawn),,resting-state EEG,healthy elderly humans,"oral, 2 mg, eyes closed, LS mean",,"EEG power, gamma, Fz-Cz",0.5 µV²
CCc1nc2[nH]c(=O)n(O)c(=O)c2s1,Brassica rapa,,,"10 mg/mL, 72 h",,root length inhibition,77%
Cc1cc(OC(C)C)ccc1C(=O)C(C)(C)NC(=O)c1sccc1C,Botrytis cinerea,germ tube elongation,B05.10,0.3 µg/mL,,inhibition,94.4 ± 3.6%

# Repeated from above:
Compound,target or system,assay,system,conditions,scale,measurement,result
Oc1ccccc1-c1n[nH]cc1-c1ccnc2ccccc12,orf19.4575 Candida albicans,"kinase binding, MIB/MS competition",Candida albicans lysate,1 µM,relative to: DMSO,log2 fold change,0.1
CC(C)NCC(O)c1ccc(O)c(O)c1 (stereo not drawn),,,"ventricular cardiomyocytes, C57BL/6 mouse","dose not given, 0.544 s",,sarcomere length,1.5 µm
CC(C)c1nc2[nH]c(=O)n(O)c(=O)c2s1,Brassica rapa,,,"10 mg/mL, 72 h",,root length inhibition,54%
